Results gathered from unrelated publications.
Lines come from different studies, so protocols differ. “And” joins repeats or separate records; there may be more than shown. ± marks the error that the study gave. Converted amounts (≈) assume the structure as drawn.

CCCC[C@H]1CC[C@H](c2ccc(C#N)cc2)CC1 — median placental accumulation (Sprague-Dawley rat, female, placenta; 5000 ng/mL in perfusate, 50 (unit not given), high dose, mixture of 21 LCMs): 311 ng/g
CNC(=O)c1ccc(-c2cnc3ncc(Cc4ccc5ncccc5c4)n3n2)cc1F — adverse event incidence (phase 1 clinical trial, measured: non-cardiac chest pain; gastric cancer expansion cohort; oral, 600 mg twice daily, grade 3 or 4): 0%
O=C(Nc1nc2cccc(-c3ccc(CN4CCS(=O)(=O)CC4)cc3)n2n1)C1CC1 — treatment-emergent adverse events (measured: infections and infestations; human rheumatoid arthritis patients; oral, 300 mg once daily, 4 weeks, regardless of relatedness): 5%
O=C(/C=C/CCc1ccc(O)cc1)/C=C/c1ccc(O)cc1 — body weight (nude mouse MCF7 xenograft; 40 mg/kg, day 2): 20 ± 1.12 g
O=C(CSc1nnc(-c2ccccc2O)n1-c1ccccc1)Nc1cccc(C(=O)O)c1 — thermodynamic solubility (aqueous buffer; pH 7.4): 90.3 µM (≈ 40.3 µg/mL)
CN[C@H](CC(C)C)C(=O)N[C@H]1C(=O)N[C@@H](CC(N)=O)C(=O)N[C@H]2C(=O)N[C@H]3C(=O)N[C@H](C(=O)N[C@H](C(=O)O)c4cc(O)cc(O)c4-c4cc3ccc4O)[C@H](O)c3ccc(c(Cl)c3)Oc3cc2cc(c3O[C@@H]2O[C@H](CO)[C@@H](O)[C@H](O)[C@H]2O[C@H]2C[C@](C)(N)[C@H](O)[C@H](C)O2)Oc2ccc(cc2Cl)[C@H]1O — storage stability (mass spectrometry; PBS; 7 mg/mL, -80 °C, no decomposition detected): ≥ 6 months
CCN1CCN(Cc2ccc(NC(=O)c3ccc(C)c(NC(=O)c4cncc(-c5cccs5)c4)c3)cc2C(F)(F)F)CC1 — extrapolated AUC share (C57BL/6 mice, plasma; intraperitoneal, 30 mg/kg): 14%
CCCCc1ccc(C#Cc2ccc(OCC)cc2)cc1 — median placental accumulation (rat, placenta; 5000 ng/mL in perfusate, high dose, mixture of 21 LCMs): 186 ng/g
CC(C)c1nc(N(C)S(C)(=O)=O)nc(-c2ccc(F)cc2)c1/C=C/[C@@H](O)C[C@@H](O)CC(=O)O — subjects with adverse event (measured: dizziness; healthy men; oral, dose not given, 8 days, treatment-emergent, crossover trial): 0%
C=CC(=O)N(C)CCOc1c(N)ncnc1-c1cc(F)cc(NC(=O)c2ccc(C3CC3)cc2F)c1C — AUC (human, plasma; oral, 5 mg single dose): 2.77 ng·h/mL
COc1ccc2c(c1)c(CC(=O)O)c(C)n2C(=O)c1ccc(Cl)cc1 — thermodynamic solubility (shake-flask; Cremophor ELP; 37 °C, water up to 0.5% w/w): 80.6 ± 3.69 mg/g
CNCCOC12CC3(C)CC(C)(CC(Cn4ncc(-c5ccc(N6CCc7cccc(C(=O)Nc8nc9ccccc9s8)c7C6)nc5C(=O)O)c4C)(C3)C1)C2 — dP/dt at 50 change (beagle dog, male, anaesthetised; intravenous bolus, 0.03 mg/kg, 150 min; reference: baseline): -20%
Cc1cc(C)c(CNC(=O)c2cc(Cl)c3c(c2C)O[C@@](C)([C@H]2CC[C@H](N(C)C)CC2)O3)c(=O)[nH]1 — fecal excretion (radiochromatography; human, feces; oral, 200 mg; reference: dose): 68.8% and 66.7% and 71.7% and 79.3%
CCN(CC)Cc1ccc2cc(COC(=O)Nc3ccc(C(=O)NO)cc3)ccc2c1 — stability relative error (rat plasma; 3200 ng/mL, three freeze-thaw cycles; reference: nominal concentration): 109%
C[C@@H](c1ccc2nccn2c1)n1nnc2ncc(-c3cnn(C)c3)nc21 — incidence of treatment-related AEs (measured: white blood cell count decreased; EGFR-mutant MET-altered NSCLC patients; oral, dose not given, AE grade ≥3, all): 3%
O=S(=O)(NCc1ccccn1)c1cc(Cl)c(Cl)cc1Cl — thermodynamic solubility (aqueous buffer; pH 7.4): < 10.7 µM
C[Si](C)(C)O[Si](C)(C)O[Si](C)(C)C — log KOW (1-octanol/water; 1.9-6.0 µg/L in water, 35.0 °C): 6.75
COc1ccc2c(c1)CN(C(=O)CCN1CCC(Cc3ccccc3)CC1)CC[S@@+]2[O-] — QTc interval (telemetry; conscious male beagle dogs; intravenous, 4 mg/kg, 2 h): 250 ± 14 ms
COc1cccc(-c2n[nH]c(SCc3ccccn3)n2)c1OC — plasma concentration (Sprague-Dawley rats, both sexes; oral dietary, 10 mg/kg/day, day 7, 6 h): 276 ng/mL
O=S(=O)(c1ccc(-c2ccc3nccc(Nc4ccncn4)c3c2)cc1)N1CCOCC1 — brain concentration (female BALB/c mice, brain; intraperitoneal, 10 mg/kg, 4 h, mean, below LLOQ as zero): 0 ng/mL
C=C(F)C(=O)N1CCN(c2nc(OC[C@@H]3CCCN3C)nc3c2CCN(c2cccc4cccc(Cl)c24)C3)C[C@@H]1CC#N — AUC(0-12h) (cancer patients, plasma; 600 mg): 4310 ng·h/mL
Cc1ccc(N(C)C(=O)/C=C/c2ccco2)cc1 — licking latency (hot plate test; mice; oral, 30 mg/kg single, 0 min): 14.7 ± 0.4 s
C[C@H]1O[C@@H](O[C@H]2[C@@H](O)C[C@H](O[C@H]3[C@@H](O)C[C@H](O[C@H]4CC[C@@]5(C)[C@H](CC[C@@H]6[C@@H]5C[C@@H](O)[C@]5(C)[C@@H](C7=CC(=O)OC7)CC[C@]65O)C4)O[C@@H]3C)O[C@@H]2C)C[C@H](O)[C@@H]1O — participants with TEAE (measured: Thirst; human; oral, 0.25 mg): 3.4%
Cc1cc(NC2CCN(C(=O)OC3CCN(C(=O)/C=C/CN(C)C)C3)CC2)n2ncc(C(C)C)c2n1 (centres unmarked) — patients with adverse event (Phase I dose escalation CTCAE v4.0, measured: ALT increased; patients with advanced solid tumours; dose not given, TIW dosing grade 3 or higher): 0%
Cn1cc(-c2cn3nccc3c(-c3cnn([C@]4(CC#N)C[C@@H](C#N)C4)c3)n2)cn1 — MRT (healthy human, plasma; 30 mg once daily, day 10, multiple dose, fed, geometric mean): 10.6 h
CNC(=O)c1ccc(-c2cnc3ncc(Cc4ccc5ncccc5c4)n3n2)cc1F — abdominal discomfort incidence (healthy human subjects; oral, 400 mg, all grades, all causality, with: rifampicin 600 mg/day): 7.7%
CC(C)[C@@H](CN1CC[C@@](C)(c2cccc(O)c2)[C@@H](C)C1)NC(=O)[C@H]1Cc2ccc(O)cc2CN1 — AUClast (Sprague-Dawley rat, plasma; intraperitoneal, 3 mg/kg): 784 ng·h/mL
Cc1cc(Nc2cc3ncccc3c(N[C@@H]3C[C@H]4CC[C@@H](C3)N4CCC#N)n2)n[nH]1 — AUC(0-4) (human, plasma; 270 mg, day 14, geometric mean): 22.2 ng·h/mL
O=C1NCCc2nc(OCc3cccc(F)c3)ccc21 — respiratory rate score (modified Irwin test; Sprague-Dawley rat, male; oral, 100 mg/kg, 4 h; higher = stronger change): 0
NC(=O)N1c2ccccc2CC(O)c2ccccc21 (centres unmarked) — clearance (population PK, bootstrap median; human patients, plasma): 3.04 L/h
CC(F)(F)c1nc2nc(CO)cc(Nc3ccc(S(F)(F)(F)(F)F)cc3)n2n1 — AUC(0-t), metabolite (LC-MS/MS; malaria patients, plasma; oral, 800 mg of parent drug): 362000 ng·h/mL
Cn1cc(Nc2nccc(-c3ccc4c(c3)CN(C3COC3)CC[C@H]4NC(=O)c3cn(C(C)(C)C)nn3)n2)cn1 — NKT cell count change (human, whole blood; 300 mg twice daily, day 14; reference: pre-dose baseline): 0.06%
c1ccc(-c2nc(NCc3ccco3)c3ccccc3n2)nc1 — kinetic solubility (Japanese Pharmacopoeia disintegration test solution 2; pH 6.8): 73 µg/mL (≈ 241 µM)
CCCCC[C@H]1CC[C@H](c2ccc(OCC)c(F)c2F)CC1 — median placental accumulation (rat, placenta; 1000 ng/mL in perfusate, middle dose, mixture of 21 LCMs): 14.5 ng/g
O=C(O)CCC(=O)O.[2H]C([2H])([2H])Oc1cc(C)c2[nH]ccc2c1CN1CC[C@@H](C2CC2)C[C@H]1c1ccc(C(=O)O)cc1 — subjects with dental ulcer TEAE (multiple ascending dose; healthy Chinese subjects; 50 mg twice daily): 0%
CC(C)(C(=O)N1CCOc2c(C#N)cncc2C1)C(F)F — subjects with adverse event (measured: Polyuria; human; oral, 40 mg, CSF pharmacokinetic cohort): 16.7%
CCc1cc(C(=O)NC)c2nccc(N3CCc4c(cc(Cn5ccnc5)cc4-c4cn(C)nc4C(F)(F)F)C3=O)c2c1 — body weight (Sprague Dawley rat; oral, 50 mg/kg once daily, day 6, 7-day toxicology study): 258 ± 8.8 g
CNCc1ccc(-c2[nH]c3cc(F)cc4c3c2CCNC4=O)cc1 — incidence of decreased appetite (human patients; oral, 600 mg twice daily, grade 3): 0%
C[C@@H](Nc1cc(F)cc(F)c1)c1cc(C(=O)N(C)C)cc2c(=O)cc(N3CCOCC3)oc12 — t1/2 geometric mean (human, plasma; oral, 60 mg, day 1 single dose): 3.41 h
N#Cc1ccc2c(c1)[C@H]1CCCN(C(=O)c3ccc4[nH]cnc4c3)[C@H]1C2 — cortisol level change (human; 80 mg, day 7; reference: baseline): -131 nmol/L
CCN1/C(=C/C(C)=O)Sc2ccc(F)cc21 — QRS duration (cynomolgus monkey; oral, 10 mg/kg, 2 h post-dose): 36 ± 2 ms

Repeated from above:
Cn1cc(-c2cn3nccc3c(-c3cnn([C@]4(CC#N)C[C@@H](C#N)C4)c3)n2)cn1 — MRT (healthy human, plasma; 30 mg once daily, day 10, multiple dose, fed, geometric mean): 10.6 h
CNC(=O)c1ccc(-c2cnc3ncc(Cc4ccc5ncccc5c4)n3n2)cc1F — abdominal discomfort incidence (healthy human subjects; oral, 400 mg, all grades, all causality, with: rifampicin 600 mg/day): 7.7%
CC(C)[C@@H](CN1CC[C@@](C)(c2cccc(O)c2)[C@@H](C)C1)NC(=O)[C@H]1Cc2ccc(O)cc2CN1 — AUClast (Sprague-Dawley rat, plasma; intraperitoneal, 3 mg/kg): 784 ng·h/mL
Cc1cc(Nc2cc3ncccc3c(N[C@@H]3C[C@H]4CC[C@@H](C3)N4CCC#N)n2)n[nH]1 — AUC(0-4) (human, plasma; 270 mg, day 14, geometric mean): 22.2 ng·h/mL
O=C1NCCc2nc(OCc3cccc(F)c3)ccc21 — respiratory rate score (modified Irwin test; Sprague-Dawley rat, male; oral, 100 mg/kg, 4 h; higher = stronger change): 0
NC(=O)N1c2ccccc2CC(O)c2ccccc21 (centres unmarked) — clearance (population PK, bootstrap median; human patients, plasma): 3.04 L/h
CC(F)(F)c1nc2nc(CO)cc(Nc3ccc(S(F)(F)(F)(F)F)cc3)n2n1 — AUC(0-t), metabolite (LC-MS/MS; malaria patients, plasma; oral, 800 mg of parent drug): 362000 ng·h/mL
